Experimental data pooled from the literature.
Compare with care: the assays were run in different laboratories. Several values in a cell are separate wells, animals, samples, runs or records. Numbers after ± are the reported error.

SMILES = CCSc1nc2ccccc2n1Cc1nnc(-c2ccc(OC)cc2)o1; test = relaxation, calcium antagonist; system = isolated rabbit jejunum; setting = added: 80 mM K+ contraction; quantity = EC50; result = 0.46 ± 0.05 µg/mL
SMILES = CN1CCN(S(=O)(=O)c2cc([N+](=O)[O-])ccc2N(CCOS(C)(=O)=O)CCOS(C)(=O)=O)CC1; system = NSG mice, sample CG PDX; setting = intraperitoneal, 25 mg/kg weekly x3; quantity = event-free survival; result = 38.8 days
SMILES = C[C@H]1O[C@@H](O[C@H]2CC[C@@]3(C)[C@@H](CC[C@]4(C)[C@@H]3C=C[C@]35OC[C@@]6(CCC(C)(C)C[C@H]63)[C@@H](O)C[C@]54C)[C@]2(C)CO)[C@H](O)[C@@H](O[C@@H]2O[C@H](CO)[C@@H](O)[C@H](O)[C@H]2O)[C@H]1O; system = mouse, pair-fed, hepatic SIRT1 knockdown; setting = dose not given, high dose; quantity = liver to body weight ratio; result = 3.32% and 3.97% and 3.64% and 2.73% and 3.88%
SMILES = CC[C@H](C)[C@@H]1NC(=O)[C@@H]2CCCN2C(=O)[C@H](CC(C)C)NC(=O)[C@H](CC(C)C)NC(=O)CNC(=O)[C@@H](NC(=O)[C@@H](NC(=O)[C@H](CC(=O)O)NC(=O)CNC(=O)[C@@H](NC(=O)[C@H](C)NC(=O)CNC(=O)[C@H](CCCCN)NC(=O)[C@H](CC(C)C)NC(=O)[C@H](CC(C)C)NC(=O)[C@H](CCCCN)NC(=O)CNC(=O)[C@@H](NC(=O)[C@@H](N)CC(C)C)C(C)C)C(C)C)C(C)C)CSSC[C@@H](C(=O)O)NC1=O; test = RNA-seq, refers to: Trim43a mRNA; system = mouse traumatic brain injury, frontal cortex and hippocampus; setting = dose not given; scale = reference: TBI plus compound vs TBI; quantity = log2 fold change; result = 1.4
SMILES = CCSc1nc2ccccc2n1Cc1nnc(-c2ccc([N+](=O)[O-])cc2)o1; test = relaxation, calcium antagonist; system = isolated rabbit jejunum; setting = added: 80 mM K+ contraction; quantity = EC50; result = 0.39 ± 0.05 µg/mL
SMILES = CC(C)C1CCC(N2CCC(N3C(=O)C(=O)c4ccccc43)CC2)CC1 (stereo not shown); system = conscious Sprague-Dawley rat; setting = intravenous bolus, 30 nmol/kg; quantity = mean arterial pressure change; result = decreased
SMILES = CCSc1nc2ccccc2n1Cc1nnc(-c2ccc(O)cc2)o1; test = relaxation, calcium antagonist; system = isolated rabbit jejunum; setting = added: 80 mM K+ contraction; quantity = EC50; result = 0.28 ± 0.09 µg/mL
SMILES = C[C@]1(CO)Cc2ncn(-c3ccc(C#N)c(Cl)c3)c2C(=O)O1; test = aldosterone synthesis, inhibitor, refers to: cortisol; system = healthy Japanese adults, urine; setting = 40 mg, 0-24 h at steady state, multiple rising dose; quantity = urinary excretion; result = 65.6 mmol
SMILES = Clc1cc2c(cc1Cl)Oc1cc(Cl)c(Cl)cc1O2; test = untargeted metabolomics; system = Sprague-Dawley rat, female, serum; setting = dose not given; scale = reference: vehicle; quantity = number of changed metabolites; result = 183
SMILES = CCSc1nc2ccccc2n1Cc1nnc(-c2cccc(OC)c2O)o1; test = relaxation, calcium antagonist; system = isolated rabbit jejunum; setting = added: 80 mM K+ contraction; quantity = EC50; result = 0.29 ± 0.06 µg/mL
SMILES = Cc1nc(Nc2ccc(CC(=O)O)cc2)nc(Nc2ccc(F)c(C(F)(F)F)c2)c1C; system = C57BL/6J mice, high-fat diet, liver; setting = intraperitoneal, 0.3 mg/kg daily, 60% fat diet 12 weeks, dosed last four; scale = reference: vehicle; quantity = TUNEL-positive cells; result = decreased
SMILES = CCSc1nc2ccccc2n1Cc1nnc(-c2ccccc2Cl)o1; test = relaxation, calcium antagonist; system = isolated rabbit jejunum; setting = added: 80 mM K+ contraction; quantity = EC50; result = 0.44 ± 0.02 µg/mL
SMILES = C[C@]12CC[C@H](O)C[C@H]1CC[C@@H]1[C@@H]2CC[C@]2(C)[C@@H](c3ccc(=O)oc3)CC[C@]12O; system = female nude mouse LCC2 xenograft; setting = 1.0 mg/kg, day 11, tamoxifen-resistant; quantity = tumour volume; result = 69.7 mm3 and 43.2 mm3 and 44.7 mm3 and 46.3 mm3 and 31.8 mm3 and 50 mm3 and 28.9 mm3
SMILES = [131I-].[Na+]; test = ATA response criteria; system = human, papillary thyroid cancer, distant metastases; setting = 3700 MBq; quantity = structural incomplete response; result = 41.7%
SMILES = COc1ccc(O)c(C(C)(C)C)c1; test = Cu2+ reduction, CUPRAC; setting = 30 µg/mL; quantity = absorbance; result = 0.626 ± 0.043
SMILES = C[C@]12CC[C@H](O)CC1=CC[C@@H]1[C@@H]2CC[C@]2(C)C(n3cnc4ccccc43)=CC[C@@H]12.Cl; system = mouse CWR22Rv1 xenograft; setting = oral, 24 mg/kg once daily, 16 days, 5 days per week; quantity = tumour growth inhibition; result = 80.3%
SMILES = CCCCCCCCCN(C)C; test = RT-S9 substrate depletion; system = rainbow trout; setting = 11 °C, non-shaken incubation; quantity = depletion rate constant; result = 0.016 min⁻¹
SMILES = COc1ccc([C@@]23Oc4cc(OC)cc(OC)c4[C@@]24N=C(C2CC2)N[C@@]4(O)[C@H](C(=O)N(C)OC)[C@H]3c2ccccc2)cc1; test = mRNA translation; system = Krebs-2 cell extracts; quantity = EC50; result = 55 nM
SMILES = C=CCNc1c(O)cc2c(O)c1C[C@@H](C)C[C@H](OC)[C@H](O)[C@@H](C)/C=C(\C)[C@H](OC(N)=O)[C@@H](OC)/C=C\C=C(/C)C(=O)N2; test = RECIST v1.0; system = human GIST; setting = concentration not given, best response; quantity = patients with stable disease; result = 70%
SMILES = CCCCC1(CCCC)CN(c2ccccc2)c2cc(SC)c(OCC(=O)N[C@@H](C(=O)NCC(=O)O)c3ccccc3)cc2S(=O)(=O)C1; test = refers to: LDL cholesterol; system = human, serum; setting = 20 mg once daily, day 7; quantity = serum LDL-C; result = 73.8 mg/dL
SMILES = Cc1cn(-c2cc(NC(=O)c3ccc(C)c(Nc4nccc(-c5cccnc5)n4)c3)cc(C(F)(F)F)c2)cn1; system = human; setting = dose not given, between 12 and 6 months, within treated group; scale = direction not given; quantity = ADAS-Cog score change; result = 2.37
SMILES = CCCCC1CNC2CCc3ccc(OC)cc3C12.Cl (racemic); test = RNA sequencing; system = SAMP8 mice, hippocampus; setting = intracerebroventricular, 1.0 µg/µL, 24 h; scale = reference: vehicle; quantity = downregulated genes count; result = 77

Some of these lines once more:
SMILES = CCCCC1(CCCC)CN(c2ccccc2)c2cc(SC)c(OCC(=O)N[C@@H](C(=O)NCC(=O)O)c3ccccc3)cc2S(=O)(=O)C1; test = refers to: LDL cholesterol; system = human, serum; setting = 20 mg once daily, day 7; quantity = serum LDL-C; result = 73.8 mg/dL
SMILES = Cc1cn(-c2cc(NC(=O)c3ccc(C)c(Nc4nccc(-c5cccnc5)n4)c3)cc(C(F)(F)F)c2)cn1; system = human; setting = dose not given, between 12 and 6 months, within treated group; scale = direction not given; quantity = ADAS-Cog score change; result = 2.37
SMILES = CCCCC1CNC2CCc3ccc(OC)cc3C12.Cl (racemic); test = RNA sequencing; system = SAMP8 mice, hippocampus; setting = intracerebroventricular, 1.0 µg/µL, 24 h; scale = reference: vehicle; quantity = downregulated genes count; result = 77
